# Results of several laboratories.
# A part holds a random share of what one study measured.

# Block 1 — technique: RNA Bind-n-Seq; molecule type: RNA; matrix: in vitro; tested at: not given; baseline: input RNA pool; reading: higher = stronger binding
# Target: RING finger protein unkempt homolog, zinc fingers 1-6, GST-SBP tag (UNK, Homo sapiens, UniProt Q9C0B0, residues 30-357)
# UniProt Q9C0B0, sequence (30-357, looked up): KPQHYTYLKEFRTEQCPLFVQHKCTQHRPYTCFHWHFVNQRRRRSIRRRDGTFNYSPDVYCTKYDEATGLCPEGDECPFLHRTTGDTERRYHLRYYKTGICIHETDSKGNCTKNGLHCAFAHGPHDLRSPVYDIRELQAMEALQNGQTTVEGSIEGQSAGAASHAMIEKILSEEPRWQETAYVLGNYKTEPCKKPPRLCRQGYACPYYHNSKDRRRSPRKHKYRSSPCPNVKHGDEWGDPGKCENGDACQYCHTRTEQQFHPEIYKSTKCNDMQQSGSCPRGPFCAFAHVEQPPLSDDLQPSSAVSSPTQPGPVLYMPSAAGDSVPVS
# Notes: RNA with constant flanks, human-mouse chimeric sites, ends assumed
# All sequences stand within: GGGAGUUCUACAGUCCGACGAUC … CAACAGAGGAUUGAGCAUCA
Oligonucleotide,bound/input enrichment [ratio]
AGGAGGAGGUUAAAGGGUGAGAGUGGGAUGGAGGAUUGUGUCAUGGCUCUGGAGACACUGUUCAGUGUCCUGCUUUCUCUGUGCAGACUGAUGGCCCCCUACACACCCUUUCUGACUGAG,0.135
AAAGUGGACUAUGGCGAGUACAUGGAUAAAAACAAUGUGAGGCGACAAGCAACAACAAUCAUAGCUGAUAAUAUUAUAUUUCUGAGUGACCAGACAAAAGAAAAGGCAUAGAACGGAUGA,4.56
GCUCUUGGGAAUGUAAUCAGCGCCUUGGGGGACAAGAGCAAGAGGGCCACCCAUGUCCCUUACAGAGAUUCCAAGCUGACAAGACUCUUGCAGGAUUCCCUUGGGGGUAACAGCCAAACC,0.122
CUGUGUGUGCUGAAUAAAUGGCUUGUAAGAACUGUCCUCCAAGCUGUAACCCAUGCUGUUAUUAUAGUUGCUGCAAAAUGUUCUUCCUAUUGAUGUUUUUAUUUGUUAACUGAAGGUCUC,0.622
GUAUACGGUUAUCGAGGAAAGGACUGUAGAGCUAAUGUAUACCUGCUUCCCACAGGGAAAAUAGUUUAUUUUAUCGCCUCAGUGGUAGUCCUGUUUAAUUAUGAGGAGAGGACUCAGCGA,21.7
GCACUUGGGAAUGUAAUCAGCGCCUUGGGGGACAAGAGCAAGAGAGCCACCCAUGUCCCUUACAGAGACUCUAAGCUGACAAGACUCCUACAGGAUUCCCUUGGGGGUAACAGCCAAACC,0.135
AGAAAGCAAAACUUGGAACGAUUUAAGAAAGGAGACGUAAGAUUCUUGAUUUGCACAGAUGUAGCUGCUAGAGGGAUUGAUAUCCAUGGUGUUCCUUAUGUUAUAAACGUCACCCUGCCU,0.29
CACACCCUCUUCUGCGGGACCCUCAUCUUGCAGGCCCGGGCCUAUGUGGGACCGCACGUCCUGGCAGUGGUGACCCGGACAGGGUUCUGCACGGCAAAAGGGGGCCUGGUGAGCUCCAUC,0.111
AGAGCCCAGGACGUUGAUGCUACAAAUCCAAAUUAUGAAAUUAUGUGUAUGAUCAGAGACUUCAGAGGGAGCUUGGAUUACAGACCCCUAACAACAGCAGAUCCUAUUGAUGAACAUAGG,0.472
CACGUGUCUGCAGUACUUGAUGUGGACUACUCUCCCACUGGGAAGGAAUUUGUGUCUGCCAGCUUUGAUAAGUCUAUUAGAAUCUUUCCUGUAGACAAGAGCCGAAGCAGGGAAGUGUAU,0.466
CUGAAAAACACAGAUAUCAAAGUUGUUGAUUUUGGAAGUGCAACGUAUGAUGAUGAACAUCACAGUACUUUGGUGUCCACAAGGCACUACAGAGCUCCCGAGGUCAUUUUGGCUUUAGGU,0.245

# Block 2 — technique: protein-binding microarray; molecule type: double-stranded DNA, one strand shown; matrix: in vitro; tested at: 2200 nM top; notes: 60-bp whole probe; added: salmon DNA 0.4 mg/ml; baseline: random background probes; reading: higher = stronger binding; all sequences stand within: GCCTAGCAC … GTCTTGATTCGCTTGACGCTGCTG
# Target: Interferon regulatory factor 7, full length, phosphomimetic (IRF7, Homo sapiens, UniProt Q92985, residues 1-503, S471D/S472D/S475D/S476D/S477D/S483D/S484D/S487D)
# UniProt Q92985, sequence (whole entry, unmodified, looked up): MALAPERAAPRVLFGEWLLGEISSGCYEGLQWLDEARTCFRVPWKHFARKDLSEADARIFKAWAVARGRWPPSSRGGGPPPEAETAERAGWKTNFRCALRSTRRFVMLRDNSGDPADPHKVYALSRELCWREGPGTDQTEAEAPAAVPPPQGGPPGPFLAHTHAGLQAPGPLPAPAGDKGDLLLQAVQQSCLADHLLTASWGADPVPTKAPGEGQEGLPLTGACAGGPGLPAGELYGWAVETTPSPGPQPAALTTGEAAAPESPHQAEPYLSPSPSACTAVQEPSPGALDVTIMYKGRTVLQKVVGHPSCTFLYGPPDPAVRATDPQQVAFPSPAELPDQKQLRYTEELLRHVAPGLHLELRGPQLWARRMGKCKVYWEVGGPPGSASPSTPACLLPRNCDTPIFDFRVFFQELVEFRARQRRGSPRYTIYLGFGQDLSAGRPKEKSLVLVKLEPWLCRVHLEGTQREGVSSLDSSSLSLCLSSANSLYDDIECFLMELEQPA
Oligonucleotide,fitted relative affinity [z-score]
TCATATGTCTGTTTTTGACTGTGCTAG,1.48
GACGGTTCCGGTTTCGGTACGTGCTAG,6.63
GACGGTATCCTACTGCTGGCGTGCTAG,0.488
GACGGTATCCTTTTCCTAACGTGCTAG,1.38
GACGGTAACCTACTGCTGACGTGCTAG,0.227
TTAGGAATGGGTCTCGGTTAGTGCTAG,-0.0705
GACGGTATCGACTCTGGGGACGTGCTA,-0.191
AACGGTCTCCTACTGCTGACGTGCTAG,0.754
GACGGTCTCCTATTCCTGACGTGCTAG,1.28
TTAGGTATCCTACTGCCTTAGTGCTAG,0.572
TGAAAATTCTAATTAGAATTGTGCTAG,-0.863
GCCCCTTTCCTTTGCCTCTGGTGCTAG,2.54
TTTTTTCTACTTCTCTTTTGGTGCTAG,4.97
TTAGGTTTCCTTTTCCTTTGGTGCTAG,7.11
GATGATATCGGGACTGGAGACGTGCTA,-0.362
TTTACTTTCTACGTCTGATTGTGCTAG,4.42
TTAGATTTCAGACTGGACTAGTGCTAG,-0.152
GACGGTTTCGTACTGCTGACGTGCTAG,4.3
GACGGAATGGGTCTCGGGACGTGCTAG,-0.438
TTACGTCTCGGTATCGGTTAGTGCTAG,2.04
TTACGTATCGGACTGGGTTAGTGCTAG,1.17
TCAACTTTCTGAATGCTACTGTGCTAG,3.92
TTAGGGCTGGGTATCGGTTAGTGCTAG,-0.599
TTTTTTGTATTTTTGATAGAGTGCTAG,1.28
GACGGTATCGGGACTGTGGACGTGCTA,-0.442

# Block 3 — technique: protein binding microarray; molecule type: double-stranded DNA, one strand shown; matrix: in vitro; tested at: not given; baseline: not given; reading: higher = stronger binding
# Target: Histone acetyltransferase KAT6A, winged helix 1, GST fusion (KAT6A, Homo sapiens, UniProt Q92794, residues 1-85)
# Notes: 8-mer, flanks averaged, mean of 2 arrays, mostly near background
# Target sequence (chain): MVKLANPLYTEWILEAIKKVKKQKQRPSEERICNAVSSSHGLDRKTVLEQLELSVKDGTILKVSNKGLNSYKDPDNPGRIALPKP
Oligonucleotide,E-score
CAACCGTG,0.143
ATCTAGAC,-0.0773
CACAGCGA,0.19
CTATTAGC,-0.0242
CTCTGGAC,-0.152
TCCCATAA,-0.219
GGGATAGA,-0.00507
CCATCCAC,-0.228
GGCTTTAA,-0.0491
CCTCTGAG,-0.145
GCTCTTTA,0.0208
AGCGACCA,-0.0992
CGGCCTAA,0.159
GAGTATCC,-0.0394
CCGCAATA,0.182
CCATAGCA,-0.0707
CTGGATAA,-0.128
CCTGGGTA,-0.164
CCGATCGC,0.225
TGAACGCA,-0.198
CGGCCTCC,0.225
ACTGAGAT,-0.127

# Block 4 — technique: RNA Bind-n-Seq; molecule type: RNA; matrix: in vitro; tested at: 365 nM; baseline: no-protein control; reading: higher = stronger binding
# Target: RNA binding protein fox-1 homolog 2, RRM domain, GST-SBP tag (RBFOX2, Homo sapiens, UniProt O43251-10, residues 100-194)
# Notes: natural RNA segment, single round, ends assumed
# All sequences stand within: GGGAGUUCUACAGUCCGACGAUC … UGGAAUUCUCGGGUGCCAA
# Residues (chain): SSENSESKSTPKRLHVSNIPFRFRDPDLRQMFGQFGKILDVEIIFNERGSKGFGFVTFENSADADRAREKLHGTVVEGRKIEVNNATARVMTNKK
Oligonucleotide,RBNS enrichment (R)
GGGCCUUCAUGGAUCUCCAAGUCUCUCAGUCUGGUCCAGCAGGUUCUCUGCUCAAAGCUGCCUGUCUCCAGCCCAGACCUUUGCUGGGUGCACCAGAGCAUCUCAGCAGG,0.264
AAAAGUUAAACUAUGAUGCUUAAAUAUGUUUCUCUGCCUUAUUUUAUAAGUGUGUGAUAAUAGAUAGCAGAGAGAUUAUUUGGGAGGGGCAGAGACAAUAAGGCCACAGC,1.12
AGUCCCCAUCCGCUCAGUCAUCUUACCCUGUGACUGCUCUCAGCCCUGAAGAAUCCACAACCAUCCUUCCAAGGUUCUCCAUCCCCACAAUGACUAGCUGUUGCUCUCCA,0.709
CUGGUUCAUUUAGCUGUUUGGCAGAAUUCUUACACUAUCCUCAGCCUCAGUUAUGAAAUGACCAAGAAAAGUAUCUCAUAAAUAUUGUAUAUUACGUGAAAUGUGAAGUU,0.352
GAUAAUGGCUUUUUGAAAUUGAGGGGGAAAAAUUGGAGCAUCUGUAAACAGAAAUGCCAAAUUAUUGAUAGUCAUCGUUGCUGCUUCACAUUAGUAUGAGACUGAUGCAG,2.42
AGCCUGAGAGCUCCAAGGAACAAGCUGUGACAACCAGGAGCCCUGUCUGUGGGUUCGUCUGCCCAGGGCCUGGAGCCCAAGCCCUGUGUUCCUGGGGAAGCUGGGGACUU,0.491
GCUUUUCUUUGAGUCCAUCCCCCCAAAGUCAGCCUUUACUAGUAGAGGAACAAGACCUGAGCGCUGUCCCUGGGGAACCUCACUAGUCAUUCCUUUCCCUUGAUGGGGCU,0.51
CACUAAGCCAGGCACCGGGCAGAAGCUGGGCCUUCCGCCUCCCUUGGAUGGGGUCAAGAGGCCAGGCCUGGCACAUUUUGGAGUGUCCUGGCUACCAGCUCUCACCUACA,0.342
AGGACUUUCGGCAAGUCUCGUGACCUCUGGCUCUUUCACUUCCUCCCCACCUGCCAAAUGGGGAUAAAUAAUCUUACCUACCUCCUGGGGGGAGGGGAAGUUCUGAGAAU,0.366
GAAUUAUCUCAAGUAAAACAGUGAAAUAAAGUUAUAAAAUAAAAUUACAAGAUUUGGCAGCCAUGAUAAUAGGUCAUAUGUUGUAUUUCGUUUGAUUUUUUUUCUGUAAA,0.839
GACGCAUAUACAUGAUUCUCAUAUUUAUUGUGUAAAUUGGCUUUAAUACACUUGGAUCACAUUCACUUCCUGUGGAAAAGCUAGCUUUCCCAUGCAGUCAAAGCUUAUAA,0.296
CCGCUCCUUGCUGCUACACGGGGUAGGAGGACAUACAAAUAAUUGCUUCUCGUUCUUAGCAGGGAUGAACAGGCACACUGAGGUGAACAUCUGGCCCAAAUGAAGCAUAC,0.661
